Experimental data collected from several papers.
Compare with care: the assays were run in different laboratories. Numbers after ± are the reported error.
TDP1: Tyrosyl-DNA phosphodiesterase 1 (TDP1, Homo sapiens, UniProt Q9NUW8)
Chain of UniProt Q9NUW8 (whole entry, looked up): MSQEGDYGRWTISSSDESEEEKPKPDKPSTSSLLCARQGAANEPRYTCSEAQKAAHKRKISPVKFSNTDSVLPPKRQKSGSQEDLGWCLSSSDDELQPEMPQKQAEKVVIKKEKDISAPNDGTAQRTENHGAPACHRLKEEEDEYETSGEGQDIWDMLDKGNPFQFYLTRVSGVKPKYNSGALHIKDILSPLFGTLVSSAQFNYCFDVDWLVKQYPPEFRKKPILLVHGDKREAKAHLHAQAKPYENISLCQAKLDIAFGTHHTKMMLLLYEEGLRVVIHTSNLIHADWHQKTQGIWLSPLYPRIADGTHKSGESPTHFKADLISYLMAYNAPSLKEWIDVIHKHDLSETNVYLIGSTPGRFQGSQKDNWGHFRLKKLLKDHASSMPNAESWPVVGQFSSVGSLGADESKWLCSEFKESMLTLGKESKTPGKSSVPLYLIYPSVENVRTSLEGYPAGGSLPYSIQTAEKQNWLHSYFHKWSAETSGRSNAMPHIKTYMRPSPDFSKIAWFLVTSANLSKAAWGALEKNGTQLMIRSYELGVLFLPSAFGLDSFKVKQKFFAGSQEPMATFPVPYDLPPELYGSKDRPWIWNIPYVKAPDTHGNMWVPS

COc1ccc(O)cc1-c1c[nH]c2ncc(-c3cncc(C(=O)N(C)C)c3)cc12
GI50 (Ba/F3 BCR-ABL wild type; cell proliferation; 72 h): 29.9 ± 11.1 nM

CCN(C(=O)c1cc(F)ccc1Oc1nncnc1N1CCC2(C1)CN([C@H](CCCN(C)CCOC)C(C)C)C2)C(C)C
GI50 (MV4-11; cell growth or viability; 7 days): 9.1 nM

N#CCCn1cc(C=NOCc2ccc(-c3nc4cc(-c5ccccc5)ccn4c3Nc3ccc(C(=O)O)cc3)cc2)c2ccccc21 (mixture of isomers)
inhibition (TDP1; enzyme activity, inhibitor; 100 µM, unpurified compound): 49.7%

O=C(C[Se]C(=O)c1ccc2ccccc2n1)Nc1cccc(C(F)(F)F)c1
GI50 (NCI60 leukaemia subpanel; NCI60 five-dose screen): 2000 nM

N#C[Se]CCCCCCOc1ccc2c(-c3ccccc3)cc(=O)oc2c1
GI50 (WiDr, multidrug-resistant; sulforhodamine B): 8900 ± 3300 nM

CN(C)S(=O)(=O)c1ccc(-c2ccc(C=NOCc3ccc(-c4nc5cc(-c6ccccc6)ccn5c4Nc4ccc(C(=O)O)cc4)cc3)o2)cc1 (mixture of isomers)
inhibition (TDP1; enzyme activity, inhibitor; 100 µM, unpurified compound): 85.8%

CC(C)Cc1ccc(C(C)C(=O)[Se]CC(=O)Nc2cccc(C(F)(F)F)c2)cc1 (centres unmarked)
GI50 (NCI60 leukaemia subpanel; NCI60 five-dose screen): 1970 nM

COc1ccccc1-c1c[nH]c2ncc(-c3cncc(C(=O)N(C)C)c3)cc12
GI50 (Ba/F3 BCR-ABL wild type; cell proliferation; 72 h): 60.1 ± 8 nM

O=C(C[Se]C(=O)c1cc2ccccc2[nH]1)Nc1cccc(C(F)(F)F)c1
GI50 (NCI60 melanoma subpanel; cell growth, inhibitor; five-dose): 1380 nM

Cc1cc(=O)oc2cc(OCCCCCCSC#N)ccc12
GI50 (WiDr, multidrug-resistant; sulforhodamine B): 3100 ± 300 nM

C=CC(=O)Nc1ccc(OC)c(-c2c[nH]c3ncc(-c4cncc(C(=O)N(C)C)c4)cc23)c1
GI50 (Ba/F3 BCR-ABL wild type; cell proliferation; 72 h): > 1000 nM
